Experimental data pooled from the literature.
Lines come from different studies, so protocols differ. Numbers after ± are the reported error.
NPY1R: Neuropeptide Y receptor type 1 (NPY1R, Homo sapiens, UniProt P25929)
MC1R: Melanocyte-stimulating hormone receptor (MC1R, Homo sapiens, UniProt Q01726)
Oprk1: Kappa-type opioid receptor (Oprk1, Rattus norvegicus, UniProt P34975)
Sigmar1: Sigma non-opioid intracellular receptor 1 (Sigmar1, Rattus norvegicus, UniProt Q9R0C9)
cofactor-independent phosphoglycerate mutase W431C: cofactor-independent phosphoglycerate mutase (Metamycoplasma orale, UniProt A0A448ZXM1, W431C)

SMILES	tested on	assay	system	conditions	endpoint	result
CC(=O)N[C@@H](Cc1ccc(O)cc1)C(=O)N[C@@H](CCCNC(=N)NC(=O)NCCCCN)C(=O)N[C@@H](CC(C)C)C(=O)N[C@@H](CCCNC(=N)N)C(=O)N[C@@H](Cc1ccc(O)cc1)C(N)=O	NPY1R	ligand displacement, radioligand			Ki	> 5000 nM
CC[C@H](C)[C@H](NC(=O)CN)C(=O)N[C@H](C(=O)N[C@@H](CC(N)=O)C(=O)N[C@H](C(=O)N[C@@H](CC(C)C)C(=O)N[C@@H](CCC(N)=O)C(=O)N[C@@H](CCC(N)=O)C(=O)N[C@@H](Cc1ccc(O)cc1)C(=O)N[C@@H](Cc1ccc(O)cc1)C(=O)N[C@H]1CSSC[C@@H]2NC(=O)[C@H](CCC(N)=O)NC(=O)[C@H](CCC(N)=O)NC(=O)CNC(=O)[C@H](CCC(N)=O)NC(=O)[C@H]([C@@H](C)O)NC(=O)[C@H](CO)NC(=O)[C@@H]3CSSC[C@H](NC(=O)[C@H](CCCNC(=N)N)NC(=O)CNC(=O)CNC(=O)[C@H](CCCNC(=N)N)NC(=O)[C@H](C(C)C)NC(=O)[C@H](CCC(N)=O)NC1=O)C(=O)N[C@@H](C)C(=O)N[C@@H](C(C)C)C(=O)N[C@@H](CC(C)C)C(=O)N[C@@H](CO)C(=O)N[C@@H](CSSC[C@@H](C(=O)N[C@@H](CCCNC(=N)N)C(=O)N[C@@H](CCCNC(=N)N)C(=O)N[C@@H](CCCCN)C(=O)N[C@@H](CCCCN)C(N)=O)NC2=O)C(=O)N[C@@H](CC(C)C)C(=O)N1CCC[C@H]1C(=O)N[C@@H](CCCCN)C(=O)N[C@@H](CCC(=O)O)C(=O)N[C@@H](CCC(=O)O)C(=O)N[C@@H](CCC(N)=O)C(=O)N[C@@H]([C@@H](C)CC)C(=O)NCC(=O)N[C@@H](CCC(N)=O)C(=O)N3)[C@@H](C)O)[C@@H](C)CC	MC1R	ligand displacement in cells			Ki	> 5000 nM
COC(=O)N(C)[C@@H](Cc1ccccc1)C(=O)N[C@@H](Cc1ccccc1)C(=O)N[C@@H](Cc1c[nH]c2ccccc12)C(=O)N[C@@H](CCCNC(=N)N)C(=O)N[C@@H](CC(C)C)C(=O)N[C@@H](CCCNC(=N)N)C(=O)N[C@@H](CCCNC(=N)N)C(=O)N[C@H](C)C(=O)N[C@@H](CCCNC(=N)N)C(=O)N1CCC[C@H]1C(=O)N[C@@H](CCCCN)C(N)=O	Oprk1	ligand displacement, radioligand			Ki	9.52 nM
CNC(=O)C1CCN(c2ccccc2NC(=O)c2ccc(-c3cc(O)ccc3C)c(C)n2)CC1	SRC (Homo sapiens, UniProt P12931)	cell-free assay, TR-FRET			Ki	0.7 nM
CCC(=O)c1ccc2c(c1)sc(=O)n2CCCCCCN1CCCCCC1	Sigmar1	binding, radioligand binding	rat liver membranes	together with: [3H](+)-pentazocine 5 nM	Ki	10.4 ± 0.1 nM
COC(=O)N(C)[C@@H](Cc1ccccc1)C(=O)N[C@@H](Cc1ccccc1)C(=O)N[C@@H](Cc1ccc(O)cc1)C(=O)N[C@@H](CCCNC(=N)N)C(=O)N[C@@H](CC(C)C)C(=O)N[C@@H](CCCNC(=N)N)C(=O)N[C@@H](CCCNC(=N)N)C(=O)N[C@H](C)C(=O)N[C@@H](CCCNC(=N)N)C(=O)N1CCC[C@H]1C(=O)N[C@@H](CCCCN)C(N)=O	Oprk1	ligand displacement, radioligand			Ki	5.8 nM
NCCCC[C@H](NC(=O)[C@H](Cc1c[nH]c2ccccc12)NC(=O)[C@H](CCCCN)NC(=O)CNC(=O)CCC(=O)NN=Cc1cc(C=NNC(=O)CCC(=O)NCC(=O)N[C@@H](CCCCN)C(=O)N[C@@H](Cc2c[nH]c3ccccc23)C(=O)N[C@@H](CCCCN)C(N)=O)cc(C=NNC(=O)CCC(=O)NCC(=O)N[C@@H](CCCCN)C(=O)N[C@@H](Cc2c[nH]c3ccccc23)C(=O)N[C@@H](CCCCN)C(N)=O)c1)C(N)=O	Tryptase beta-2 (TPSB2, Homo sapiens, UniProt P20231)	non-competitive inhibitor			Ki	105 nM
CC[C@H](C)[C@H](NC(=O)CN)C(=O)N[C@H](C(=O)N[C@@H](CC(N)=O)C(=O)N[C@H](C(=O)N[C@@H](CC(C)C)C(=O)N[C@@H](CCC(N)=O)C(=O)N[C@@H](CCCCN)C(=O)N[C@@H](Cc1ccc(O)cc1)C(=O)N[C@@H](Cc1ccc(O)cc1)C(=O)N[C@H]1CSSC[C@@H]2NC(=O)[C@H](CCCCN)NC(=O)[C@H](CCCNC(=N)N)NC(=O)CNC(=O)[C@H](CCCNC(=N)N)NC(=O)[C@H]([C@@H](C)O)NC(=O)[C@H](CO)NC(=O)[C@@H]3CSSC[C@H](NC(=O)[C@H](CCCNC(=N)N)NC(=O)CNC(=O)CNC(=O)[C@H](CCCNC(=N)N)NC(=O)[C@H](C(C)C)NC(=O)[C@H](CCCNC(=N)N)NC1=O)C(=O)N[C@@H](C)C(=O)N[C@@H](C(C)C)C(=O)N[C@@H](CC(C)C)C(=O)N[C@@H](CO)C(=O)N[C@@H](CSSC[C@@H](C(=O)N[C@@H](C)C(=O)N[C@@H](CCCNC(=N)N)C(=O)N[C@@H](C)C(=O)N[C@@H](CCCCN)C(N)=O)NC2=O)C(=O)N[C@@H](CC(C)C)C(=O)N1CCC[C@H]1C(=O)N[C@@H](CCCCN)C(=O)N[C@@H](CCC(=O)O)C(=O)N[C@@H](CCC(=O)O)C(=O)N[C@@H](CCC(N)=O)C(=O)N[C@@H]([C@@H](C)CC)C(=O)NCC(=O)N[C@@H](CCCCN)C(=O)N3)[C@@H](C)O)[C@@H](C)CC	MC1R	ligand displacement in cells			Ki	99 nM
COc1ccc(C[C@H]2C(=O)N[C@@H](Cc3ccc(O)cc3)C(=O)N3CCC[C@H]3C(=O)NCC(=O)N[C@@H]([C@@H](C)O)C(=O)N[C@@H](C)C(=O)N[C@@H](CCC(N)=O)C(=O)N(C)[C@@H](Cc3ccc(O)cc3)C(=O)N[C@@H]([C@@H](C)O)C(=O)N[C@H](C(N)=O)CSCC(=O)N[C@H](Cc3ccc(O)cc3)C(=O)N[C@@H](Cc3c[nH]c4ccccc34)C(=O)N(C)[C@@H](Cc3ccc(O)cc3)C(=O)N[C@@H](CC(=O)O)C(=O)N(C)[C@@H](CO)C(=O)N(C)[C@@H](Cc3ccc(O)cc3)C(=O)N2C)cc1	cofactor-independent phosphoglycerate mutase W431C	biochemical	Mycoplasma orale		AC50	10.2 nM
O=c1sc2ccccc2n1CCCCCCN1CCCCCC1	Sigmar1	binding, radioligand binding	rat liver membranes	together with: [3H](+)-pentazocine 5 nM	Ki	7.5 ± 0.6 nM
CC(=O)N[C@@H](CCCNC(=N)N)C(=O)N[C@H](Cc1ccc(O)cc1)C(=O)N[C@@H](CCCNC(=N)NC(=O)NCCCCN)C(=O)N[C@@H](CC(C)C)C(=O)N[C@@H](CCCNC(=N)N)C(=O)N[C@@H](Cc1ccc(O)cc1)C(N)=O	NPY1R	ligand displacement, radioligand			Ki	> 5000 nM
CC(CCC(=O)NC(CCC(=O)Nc1cccnc1)C(=O)O)C1CCC2C3C(O)CC4CC(O)CCC4(C)C3CCC12C (stereo not shown)	SLC10A2 (Homo sapiens, UniProt Q12908)	taurocholate uptake, inhibitor	ASBT-MDCK	10 min, together with: taurocholate 2.5 µM	Ki	1510 nM
N[C@@H]1C[C@H]1c1ccccc1 (racemic)	Drd2 (Rattus norvegicus, UniProt P61169)				Ki	58700 ± 5910 nM
Cc1cc(O)cc(C)c1CC(N)C(=O)NC1CCNc2c(C(=O)NCc3ccccc3)cc(Cc3ccccc3)cc21 (stereo not shown)	OPRK1 (Homo sapiens, UniProt P41145)	ligand displacement, radioligand		cell membranes	Ki	30 nM
Cc1cc2c(cc1Cl)Cc1c(C(=O)NC3CC4CC(C3C)C4(C)C)nn(-c3ccc(Cl)cc3Cl)c1-2 (stereo not shown)	Cnr1 (Mus musculus, UniProt P47746)	binding, radioligand displacement	mouse brain homogenate without cerebellum	together with: [3H]CP-55,940	Ki	> 5000 nM
CC(C)C[C@H](NC(=O)[C@H](CC(C)C)NC(=O)[C@H](CC(=O)O)NC(=O)[C@H](CC(C)C)NC(=O)[C@@H](NC(=O)[C@H](CCC(=O)O)NC(=O)[C@H](CO)NC(=O)[C@H](Cc1ccc(C(=O)c2ccccc2)cc1)NC(=O)[C@H](C)NC(=O)[C@@H](N)[C@@H](C)O)C(C)C)C(=O)N[C@@H](CCCNC(=N)N)C(=O)N[C@@H](CCCNC(=N)N)C(=O)NCC(=O)NCC(=O)NCC(=O)N[C@@H](CO)C(=O)N[C@@H](CCCCNC(=O)CCCC[C@@H]1SC[C@@H]2NC(=O)N[C@@H]21)C(N)=O	ATP2B4 (Homo sapiens, UniProt P23634)	Ca2+-Mg2+-ATPase activity, inhibitor	erythrocyte ghosts	human erythrocyte, together with: Ca2+	Ki	50000 ± 6000 nM
CN[C@](C)(C[18F])C(=O)O	A549 tumour model		host not given, blood	2 h, tumour-bearing	tracer uptake	0.5 %ID/g
O=C(Nc1cccc(-c2nn[nH]n2)c1)c1cc(-c2ccccc2)cc(C(F)(F)F)c1	Beta-lactamase CTX-M-27 (Escherichia coli, UniProt Q840M4)	enzyme activity, inhibitor, absorbance		pH 7	Ki	10400 nM
O=C(/C=C/c1ccc(F)cc1)c1ccc(N2CCNCC2)cc1	MAOB (Homo sapiens, UniProt P27338)	enzyme activity, inhibitor			Ki	630 nM
N=C(N)NCCC[C@@H]1NC(=O)[C@@H](NC(=O)[C@H](Cc2ccccc2)NC(=O)CNC(=O)CNC(=O)[C@H](Cc2ccc(O)cc2)NCc2ccccc2)CC(=O)NC[C@@H](C(=O)N[C@@H](CCCNC(=N)N)C(=O)N2CCC[C@H]2C(=O)N[C@@H](CCCCN)C(N)=O)NC(=O)[C@H](CCCNC(=N)N)NC1=O	Oprk1	cell-free assay			Ki	410 nM
CC(=O)N[C@@H](CCCNC(=N)N)C(=O)N[C@@H](Cc1ccc(O)cc1)C(=O)N[C@@H](CCCNC(=N)N)C(=O)N[C@@H](CC(C)C)C(=O)N[C@@H](CCCNC(=N)NC(=O)NCCCCN)C(=O)N[C@@H](Cc1ccc(O)cc1)C(N)=O	NPY1R	ligand displacement, radioligand			Ki	1120 nM
CCSc1nnc(-c2ccc(S(=O)(=O)NC(=O)COC(C)=O)cc2)o1	ache (Electrophorus electricus, UniProt O42275)	enzyme activity, inhibitor, Ellman			Ki	47 nM
CC(C)[C@H](NC(=O)c1ccc(CNc2nc3c(c(=O)[nH]2)CCC3)cc1)C(=O)NC1CNC1	Collagenase 3 (MMP13, Homo sapiens, UniProt P45452)	enzyme activity, inhibitor			Ki	28.1 nM
CC[C@H](C)[C@H](NC(=O)[C@@H]1CSCC(=O)NCCC[C@H](NC(=O)[C@H](Cc2ccc(O)cc2)NC(=O)CNC(C)=O)C(=O)N[C@@H](CO)C(=O)N[C@@H](CCCNC(=N)N)C(=O)N[C@@H](CO)C(=O)N[C@@H](Cc2ccc(O)cc2)C(=O)N2CCC[C@H]2C(=O)N2CCC[C@H]2C(=O)N[C@@H](C(C)C)C(=O)N1)C(=O)N1CCC[C@H]1C(=O)N[C@@H](CC(=O)O)C(N)=O	Mannan-binding lectin serine protease 2 (Homo sapiens, UniProt O00187)			together with: 250 µM Z-L-Lys-SBzl substrate	Ki	84000 ± 19000 nM
CCCC[C@H]1C(=O)N2CCC[C@H]2C(=O)N[C@H](C(N)=O)CSCC(=O)N[C@@H](Cc2ccc(O)cc2)C(=O)N(C)[C@@H](Cc2ccc(OC)cc2)C(=O)N[C@@H](CCCNC(=N)N)C(=O)N(C)[C@@H](Cc2ccccc2)C(=O)N[C@@H](CC(=O)O)C(=O)N(C)[C@@H](CO)C(=O)N(C)[C@@H](Cc2ccc(O)cc2)C(=O)N[C@@H](CCC(N)=O)C(=O)N[C@@H](CO)C(=O)N(C)[C@@H](CO)C(=O)N(C)[C@@H](Cc2ccc(OC)cc2)C(=O)N[C@@H](C(C)C)C(=O)N(C)[C@@H](Cc2ccc(O)cc2)C(=O)N1C	cofactor-independent phosphoglycerate mutase W431C	biochemical	Mycoplasma orale		AC50	1860 nM
CCCC(=O)c1ccc2c(c1)sc(=O)n2CCCCCCN1CCCCCC1	Sigmar1	binding, radioligand binding	rat liver membranes	together with: [3H](+)-pentazocine 5 nM	Ki	10.8 ± 0.4 nM
OB(O)c1ccc(OCc2ccccc2)nc1F	Beta-lactamase (ampC, Escherichia coli K-12, UniProt P00811)	enzyme activity, inhibitor		together with: CENTA	Ki	170 nM
CC[C@H](C)[C@H](NC(=O)[C@H](Cc1ccn2nccc2c1)NC(=O)[C@@H]1CCCN1C(=O)[C@H](CCCNC(=N)N)NC(=O)[C@@H](N)CCCNC(=N)N)C(=O)N[C@@H](CC(C)C)C(=O)O	NTSR2 (Homo sapiens, UniProt O95665)	ligand displacement, radioligand		cell membranes	Ki	4.8 nM

Repeated from above:
SMILES	tested on	assay	system	conditions	endpoint	result
CN[C@](C)(C[18F])C(=O)O	A549 tumour model		host not given, blood	2 h, tumour-bearing	tracer uptake	0.5 %ID/g
O=C(Nc1cccc(-c2nn[nH]n2)c1)c1cc(-c2ccccc2)cc(C(F)(F)F)c1	Beta-lactamase CTX-M-27 (Escherichia coli, UniProt Q840M4)	enzyme activity, inhibitor, absorbance		pH 7	Ki	10400 nM
